Published values collected from several papers.
Each line is one published result; not all experiments were run side by side. “And” joins repeats or separate records; there may be more than shown. Numbers after ± are the reported error.

Sequences of proteins named here, by UniProt entry; tags and fusion partners are left off.
UniProt P11712, whole entry: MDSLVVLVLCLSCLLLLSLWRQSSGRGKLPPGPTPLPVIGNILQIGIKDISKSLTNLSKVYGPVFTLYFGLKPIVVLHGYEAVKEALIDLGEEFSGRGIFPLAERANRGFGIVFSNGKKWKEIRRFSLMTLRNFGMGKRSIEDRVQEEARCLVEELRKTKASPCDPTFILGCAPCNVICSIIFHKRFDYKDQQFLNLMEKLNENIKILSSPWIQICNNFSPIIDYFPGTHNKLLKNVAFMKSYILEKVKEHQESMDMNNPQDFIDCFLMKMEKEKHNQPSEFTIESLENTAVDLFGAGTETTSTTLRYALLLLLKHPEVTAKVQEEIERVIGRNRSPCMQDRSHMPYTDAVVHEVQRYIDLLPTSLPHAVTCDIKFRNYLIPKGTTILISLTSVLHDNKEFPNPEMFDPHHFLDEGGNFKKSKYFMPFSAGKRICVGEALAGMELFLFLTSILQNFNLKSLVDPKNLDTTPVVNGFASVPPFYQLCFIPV
UniProt P06855, whole entry: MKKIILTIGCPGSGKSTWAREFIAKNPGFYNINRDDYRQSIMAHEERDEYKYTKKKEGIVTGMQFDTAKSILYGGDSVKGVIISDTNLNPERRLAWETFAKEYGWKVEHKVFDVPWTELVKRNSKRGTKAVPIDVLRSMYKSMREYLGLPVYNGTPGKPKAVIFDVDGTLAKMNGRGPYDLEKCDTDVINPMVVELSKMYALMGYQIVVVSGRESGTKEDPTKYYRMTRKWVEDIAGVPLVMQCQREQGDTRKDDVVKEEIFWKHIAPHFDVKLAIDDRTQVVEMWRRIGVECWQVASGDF
UniProt P05181, whole entry: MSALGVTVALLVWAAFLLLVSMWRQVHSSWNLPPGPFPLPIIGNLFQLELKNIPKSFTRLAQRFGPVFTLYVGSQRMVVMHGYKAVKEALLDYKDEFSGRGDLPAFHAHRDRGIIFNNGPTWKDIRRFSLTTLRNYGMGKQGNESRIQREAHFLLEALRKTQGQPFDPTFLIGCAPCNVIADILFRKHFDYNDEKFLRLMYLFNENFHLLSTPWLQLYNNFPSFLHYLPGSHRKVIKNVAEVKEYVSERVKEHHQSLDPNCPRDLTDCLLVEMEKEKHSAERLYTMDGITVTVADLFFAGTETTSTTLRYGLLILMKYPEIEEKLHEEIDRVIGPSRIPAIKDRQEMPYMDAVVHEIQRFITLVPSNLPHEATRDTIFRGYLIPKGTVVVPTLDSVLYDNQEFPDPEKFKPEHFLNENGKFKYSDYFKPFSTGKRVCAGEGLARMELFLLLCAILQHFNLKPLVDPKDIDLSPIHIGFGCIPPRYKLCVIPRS
UniProt P08183, whole entry: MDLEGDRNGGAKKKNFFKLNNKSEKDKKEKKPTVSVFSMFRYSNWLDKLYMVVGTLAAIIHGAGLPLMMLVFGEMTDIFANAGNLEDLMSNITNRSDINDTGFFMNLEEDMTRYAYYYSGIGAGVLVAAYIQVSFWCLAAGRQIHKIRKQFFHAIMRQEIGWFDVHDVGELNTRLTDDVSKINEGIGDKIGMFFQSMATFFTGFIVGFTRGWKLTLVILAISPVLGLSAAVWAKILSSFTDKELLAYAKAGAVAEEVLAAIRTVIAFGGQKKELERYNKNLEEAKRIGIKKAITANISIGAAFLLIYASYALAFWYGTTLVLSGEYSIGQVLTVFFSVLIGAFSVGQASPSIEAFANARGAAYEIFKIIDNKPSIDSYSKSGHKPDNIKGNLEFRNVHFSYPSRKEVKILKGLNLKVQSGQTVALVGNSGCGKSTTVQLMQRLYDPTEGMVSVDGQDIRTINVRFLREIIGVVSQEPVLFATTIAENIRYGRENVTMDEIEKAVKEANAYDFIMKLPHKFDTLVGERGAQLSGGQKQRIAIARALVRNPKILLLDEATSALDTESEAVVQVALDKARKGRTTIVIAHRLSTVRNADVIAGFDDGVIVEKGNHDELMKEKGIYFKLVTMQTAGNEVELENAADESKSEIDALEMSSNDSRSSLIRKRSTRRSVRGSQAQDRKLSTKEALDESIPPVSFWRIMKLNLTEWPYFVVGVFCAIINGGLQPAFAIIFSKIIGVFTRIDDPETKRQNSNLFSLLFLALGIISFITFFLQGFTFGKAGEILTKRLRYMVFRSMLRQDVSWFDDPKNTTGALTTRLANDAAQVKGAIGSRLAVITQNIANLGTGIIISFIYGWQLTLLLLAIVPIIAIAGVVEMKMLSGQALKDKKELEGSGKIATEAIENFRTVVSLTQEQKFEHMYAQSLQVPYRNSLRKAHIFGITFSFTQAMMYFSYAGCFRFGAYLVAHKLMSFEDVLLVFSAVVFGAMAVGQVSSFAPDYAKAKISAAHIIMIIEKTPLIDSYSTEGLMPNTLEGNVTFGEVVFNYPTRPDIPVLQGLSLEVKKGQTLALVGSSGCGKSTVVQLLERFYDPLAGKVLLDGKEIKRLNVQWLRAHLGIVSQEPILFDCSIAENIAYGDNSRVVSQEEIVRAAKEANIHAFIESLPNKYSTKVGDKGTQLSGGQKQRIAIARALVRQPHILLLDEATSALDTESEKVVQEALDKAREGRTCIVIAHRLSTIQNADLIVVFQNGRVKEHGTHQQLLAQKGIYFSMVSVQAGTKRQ
UniProt Q16539, whole entry: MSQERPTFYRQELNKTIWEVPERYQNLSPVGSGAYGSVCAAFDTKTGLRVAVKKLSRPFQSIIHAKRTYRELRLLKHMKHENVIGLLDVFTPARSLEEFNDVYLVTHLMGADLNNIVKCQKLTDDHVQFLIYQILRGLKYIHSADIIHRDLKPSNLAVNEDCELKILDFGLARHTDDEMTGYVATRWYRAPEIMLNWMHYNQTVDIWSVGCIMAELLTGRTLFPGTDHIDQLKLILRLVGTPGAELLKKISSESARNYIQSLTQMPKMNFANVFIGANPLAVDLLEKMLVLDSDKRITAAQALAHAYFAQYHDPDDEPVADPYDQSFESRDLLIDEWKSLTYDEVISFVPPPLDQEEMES

CCOC(=O)C1=C(C)N(c2cccc(C(F)(F)F)c2)C(=O)N(CC(=O)N(C)C)[C@@H]1c1ccc(C#N)cc1 — IC50 (Cytochrome P450 2C9 (CYP2C9, Homo sapiens, UniProt P11712); human liver microsomes; pH 7.4, with: diclofenac): > 50 µM
NS(=O)(=O)c1nnc(NC(=O)CC2C3CC4CC(C3)CC2C4)s1 (stereo not shown) — half-life (mouse liver microsomes): > 2 h
CCCCCCCCNCc1ccc(CNC(=O)c2csc3ncnc(OC)c23)cc1 — EC50 (human red blood cells; hemolysis; 1 h, 37 °C, estimated, weak activity): > 100 µM
CN1C(=O)CCc2cc(CNC(C)(C)[C@@H](O)c3ccccc3)ccc21 — Cmax (male CD-1 mouse, plasma; subcutaneous, 10 mg/kg): 228 ng/mL
NS(=O)(=O)c1nnc(NC(=O)C2C3CC4CC(C3)CC2C4)s1 (stereo not shown) — kinetic solubility (PBS; pH 7.4): 166 µM
CC/C=C\C/C=C\CCC/C=C/C=C/C=C\CCCC(=O)O — IC50 (Polynucleotide kinase (pseT, Enterobacteria phage T4, UniProt P06855); enzyme activity, inhibitor): > 100 µM
CCCCCCCCC/C=C/C=O — Ki (Cytochrome P450 2E1 (CYP2E1, Homo sapiens, UniProt P05181); competitive inhibitor; human liver S9; with: p-nitrophenol): 2.6 ± 0.1 µM
Cc1ccc(S(=O)(=O)Nc2ccccc2C(=O)Nc2nc(-c3ccccc3)cs2)cc1 — kinetic solubility (PBS pH 7.4; 10 mM DMSO stock): < 1 µg/mL
COc1ncnc2scc(C(=O)NCc3ccc(CN4CCOCC4)cc3)c12 — EC50 (human red blood cells; hemolysis; 1 h, 37 °C, estimated, weak activity): > 100 µM
Cc1cc(S(=O)(=O)N[C@H](C)CO[C@H]2CC[C@H](CN3CCN(c4ccc5c(c4F)n(C)c(=O)n5C4CCC(=O)NC4=O)CC3)CC2)ccc1Nc1ncc(C(F)(F)F)c([C@H]2CC[C@@](C)(O)CC2)n1 (stereo partly shown) — efflux ratio (ATP-dependent translocase ABCB1 (ABCB1, Homo sapiens, UniProt P08183); bidirectional permeability; MDCK transfected with ABCB1; baseline: B-A over A-B permeability): > 530
C=C(C)C(=O)Nc1ccc(-c2c(-c3ccc(Oc4nccc(C)n4)c(F)c3)c3c(N)ncnc3n2C)cc1 — area over GR curve (EN; cell growth, CellTiter-Glo; 120 h, unit not given; baseline: untreated growth rate, higher = stronger inhibition): 0.451
CCCOc1ncnc2scc(C(=O)NCc3ccc(CNCc4ccccc4)cc3)c12 — EC50 (human red blood cells; hemolysis; 1 h, 37 °C, estimated, weak activity): > 100 µM
CCOC(=O)c1c(-c2ccc(Cl)cc2Cl)n(-c2nc(-c3ccc(Cl)cc3)c3c(NC(=O)c4ccccc4)nnc-3[nH]2)[nH]c1=O — cell growth (T47D; SRB; 10 µM): 7.66%
CC(C)C[C@H](NC(=O)[C@H](C)NC(=O)[C@H](CCCNC(=N)N)NC(=O)[C@H](CCCNC(=N)N)NC(=O)[C@H](CCCNC(=N)N)NC(=O)[C@H](C)NC(=O)[C@H](CC(C)C)NC(=O)[C@H](CCCNC(=N)N)NC(=O)[C@H](CO)NC(=O)[C@H](CCCCN)NC(=O)[C@H](CO)NC(=O)Cn1cc(COC(=O)[C@]2(C)C=C(C(=O)OC(C)(C)C)C(=O)CC2)nn1)C(=O)O — remaining activity (Mitogen-activated protein kinase 14 (MAPK14, Homo sapiens, UniProt Q16539); enzyme activity, inhibitor, D-SENSOR kinase; 22.22 µM, unit not given; baseline: untreated): 0.017 and 0.0159 and 0.00584
N#Cc1c(-c2ccc(Cl)cc2Cl)n(-c2nc(-c3ccc(Cl)cc3)c3c(NC(=O)c4ccccc4)nnc-3[nH]2)[nH]c1=O — cell growth (T47D; SRB; 10 µM): 24.1%
O=C(NCc1ccco1)C1CN(c2cc(-c3cc(F)cc(F)c3)n[nH]c2=O)C1 — IC50 (BJ or MRC5 fibroblasts; cytotoxicity, MTS): > 50 µM

Excerpt of the above:
COc1ncnc2scc(C(=O)NCc3ccc(CN4CCOCC4)cc3)c12 — EC50 (human red blood cells; hemolysis; 1 h, 37 °C, estimated, weak activity): > 100 µM
Cc1cc(S(=O)(=O)N[C@H](C)CO[C@H]2CC[C@H](CN3CCN(c4ccc5c(c4F)n(C)c(=O)n5C4CCC(=O)NC4=O)CC3)CC2)ccc1Nc1ncc(C(F)(F)F)c([C@H]2CC[C@@](C)(O)CC2)n1 (stereo partly shown) — efflux ratio (ATP-dependent translocase ABCB1 (ABCB1, Homo sapiens, UniProt P08183); bidirectional permeability; MDCK transfected with ABCB1; baseline: B-A over A-B permeability): > 530
C=C(C)C(=O)Nc1ccc(-c2c(-c3ccc(Oc4nccc(C)n4)c(F)c3)c3c(N)ncnc3n2C)cc1 — area over GR curve (EN; cell growth, CellTiter-Glo; 120 h, unit not given; baseline: untreated growth rate, higher = stronger inhibition): 0.451
